Measurements collected from several papers.
Each numbered part is a random draw from the data of one study; scales do not carry over between parts. Several values in a cell are separate wells, animals, samples, runs or records.
Chain of UniProt Q9UQM7 (whole entry, looked up): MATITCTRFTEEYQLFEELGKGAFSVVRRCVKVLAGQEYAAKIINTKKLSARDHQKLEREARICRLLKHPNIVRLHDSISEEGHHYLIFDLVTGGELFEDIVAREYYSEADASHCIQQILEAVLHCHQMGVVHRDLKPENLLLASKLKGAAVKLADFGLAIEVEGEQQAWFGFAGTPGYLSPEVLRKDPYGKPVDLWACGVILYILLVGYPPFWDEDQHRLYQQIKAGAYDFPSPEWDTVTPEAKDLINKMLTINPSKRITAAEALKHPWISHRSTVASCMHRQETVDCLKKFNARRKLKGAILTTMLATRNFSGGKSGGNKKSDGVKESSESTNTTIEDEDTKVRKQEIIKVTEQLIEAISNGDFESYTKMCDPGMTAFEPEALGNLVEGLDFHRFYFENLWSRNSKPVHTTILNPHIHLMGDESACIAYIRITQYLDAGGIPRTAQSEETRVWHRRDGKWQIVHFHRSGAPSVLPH
Chain of UniProt Q05397 (whole entry, looked up): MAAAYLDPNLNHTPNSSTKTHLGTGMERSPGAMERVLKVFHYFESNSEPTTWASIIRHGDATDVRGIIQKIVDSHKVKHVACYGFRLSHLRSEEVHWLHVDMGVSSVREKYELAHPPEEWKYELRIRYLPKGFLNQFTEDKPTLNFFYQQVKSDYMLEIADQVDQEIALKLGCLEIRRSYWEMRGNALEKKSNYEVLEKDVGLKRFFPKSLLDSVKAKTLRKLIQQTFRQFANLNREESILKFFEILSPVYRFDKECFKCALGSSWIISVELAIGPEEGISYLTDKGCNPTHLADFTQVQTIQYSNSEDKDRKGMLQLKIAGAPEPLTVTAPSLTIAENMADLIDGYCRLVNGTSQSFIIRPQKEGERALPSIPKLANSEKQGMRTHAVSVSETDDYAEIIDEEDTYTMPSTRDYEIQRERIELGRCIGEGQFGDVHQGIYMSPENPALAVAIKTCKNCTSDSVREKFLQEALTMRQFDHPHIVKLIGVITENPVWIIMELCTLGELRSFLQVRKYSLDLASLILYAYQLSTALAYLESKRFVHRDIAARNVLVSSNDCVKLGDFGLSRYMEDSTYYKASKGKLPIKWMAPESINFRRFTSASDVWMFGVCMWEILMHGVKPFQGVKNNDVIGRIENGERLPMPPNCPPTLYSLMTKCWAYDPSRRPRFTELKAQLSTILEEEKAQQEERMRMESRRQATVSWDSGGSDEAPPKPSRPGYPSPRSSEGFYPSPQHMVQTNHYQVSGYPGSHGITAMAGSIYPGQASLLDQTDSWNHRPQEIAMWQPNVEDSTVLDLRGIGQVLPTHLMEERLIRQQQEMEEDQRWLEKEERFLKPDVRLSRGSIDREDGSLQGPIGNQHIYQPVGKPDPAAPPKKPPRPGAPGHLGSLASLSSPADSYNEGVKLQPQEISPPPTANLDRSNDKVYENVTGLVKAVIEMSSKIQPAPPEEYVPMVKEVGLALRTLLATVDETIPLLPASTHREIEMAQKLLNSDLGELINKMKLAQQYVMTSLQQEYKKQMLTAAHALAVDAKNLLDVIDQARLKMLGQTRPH
Chain of UniProt P16234 (whole entry, looked up): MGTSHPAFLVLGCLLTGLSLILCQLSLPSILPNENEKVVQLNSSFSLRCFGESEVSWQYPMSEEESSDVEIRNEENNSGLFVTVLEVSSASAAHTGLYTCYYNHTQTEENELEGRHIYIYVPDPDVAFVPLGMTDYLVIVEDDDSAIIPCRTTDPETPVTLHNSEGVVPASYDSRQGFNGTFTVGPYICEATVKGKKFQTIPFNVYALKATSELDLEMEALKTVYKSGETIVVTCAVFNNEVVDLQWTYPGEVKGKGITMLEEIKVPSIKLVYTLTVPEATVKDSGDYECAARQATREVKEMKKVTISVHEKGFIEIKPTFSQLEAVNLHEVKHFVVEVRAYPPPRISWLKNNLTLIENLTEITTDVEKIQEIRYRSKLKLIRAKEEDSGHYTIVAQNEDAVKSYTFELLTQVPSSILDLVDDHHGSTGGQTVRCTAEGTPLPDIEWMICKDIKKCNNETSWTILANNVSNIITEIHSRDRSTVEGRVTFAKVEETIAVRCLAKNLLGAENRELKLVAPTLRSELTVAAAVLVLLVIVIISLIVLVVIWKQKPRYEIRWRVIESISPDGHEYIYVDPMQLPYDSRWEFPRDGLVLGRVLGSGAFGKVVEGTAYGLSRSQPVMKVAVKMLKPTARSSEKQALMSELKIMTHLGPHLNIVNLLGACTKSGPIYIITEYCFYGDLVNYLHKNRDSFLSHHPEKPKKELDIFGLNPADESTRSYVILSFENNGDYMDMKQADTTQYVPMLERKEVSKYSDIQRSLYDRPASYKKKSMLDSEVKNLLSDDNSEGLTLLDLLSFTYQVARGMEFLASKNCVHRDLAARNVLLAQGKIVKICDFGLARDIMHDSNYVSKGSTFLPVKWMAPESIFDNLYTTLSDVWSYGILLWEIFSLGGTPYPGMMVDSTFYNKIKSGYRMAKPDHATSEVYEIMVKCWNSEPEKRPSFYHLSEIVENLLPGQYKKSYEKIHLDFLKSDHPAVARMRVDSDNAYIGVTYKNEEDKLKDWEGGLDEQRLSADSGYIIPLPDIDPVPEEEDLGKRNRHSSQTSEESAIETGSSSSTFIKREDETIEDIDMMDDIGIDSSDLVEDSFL
Chain of UniProt Q13043 (whole entry, looked up): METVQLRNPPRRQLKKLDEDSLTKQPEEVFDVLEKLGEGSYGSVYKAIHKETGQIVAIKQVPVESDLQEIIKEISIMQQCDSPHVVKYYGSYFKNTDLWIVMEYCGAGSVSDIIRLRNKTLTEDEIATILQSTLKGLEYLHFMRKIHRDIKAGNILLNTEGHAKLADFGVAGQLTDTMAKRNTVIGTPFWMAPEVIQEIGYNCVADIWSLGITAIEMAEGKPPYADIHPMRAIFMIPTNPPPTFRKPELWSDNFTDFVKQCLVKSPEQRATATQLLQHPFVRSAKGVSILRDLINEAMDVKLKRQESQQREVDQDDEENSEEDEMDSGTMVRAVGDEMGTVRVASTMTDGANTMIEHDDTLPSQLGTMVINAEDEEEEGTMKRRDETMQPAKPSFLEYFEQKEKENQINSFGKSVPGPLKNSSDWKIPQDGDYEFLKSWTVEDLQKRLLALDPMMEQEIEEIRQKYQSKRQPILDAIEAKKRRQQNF
Chain of UniProt O15111 (whole entry, looked up): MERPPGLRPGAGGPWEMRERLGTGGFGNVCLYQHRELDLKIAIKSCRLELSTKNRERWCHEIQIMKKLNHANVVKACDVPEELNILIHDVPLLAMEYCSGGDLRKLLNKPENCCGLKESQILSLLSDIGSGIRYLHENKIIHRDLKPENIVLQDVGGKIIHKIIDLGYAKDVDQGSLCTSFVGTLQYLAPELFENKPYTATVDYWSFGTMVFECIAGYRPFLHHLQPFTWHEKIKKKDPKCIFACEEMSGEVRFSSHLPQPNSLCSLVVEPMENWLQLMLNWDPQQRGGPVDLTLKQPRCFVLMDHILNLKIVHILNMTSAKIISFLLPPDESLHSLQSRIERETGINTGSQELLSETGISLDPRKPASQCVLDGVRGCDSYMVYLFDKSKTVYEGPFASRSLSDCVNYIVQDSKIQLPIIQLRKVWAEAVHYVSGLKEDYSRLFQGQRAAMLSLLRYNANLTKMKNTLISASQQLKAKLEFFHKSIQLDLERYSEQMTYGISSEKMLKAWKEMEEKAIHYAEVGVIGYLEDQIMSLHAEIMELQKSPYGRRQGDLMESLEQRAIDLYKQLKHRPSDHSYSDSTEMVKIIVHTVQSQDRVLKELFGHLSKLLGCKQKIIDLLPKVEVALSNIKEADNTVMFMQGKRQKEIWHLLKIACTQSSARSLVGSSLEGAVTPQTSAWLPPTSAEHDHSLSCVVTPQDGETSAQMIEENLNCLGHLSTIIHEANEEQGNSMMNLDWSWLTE
Chain of UniProt P04629 (whole entry, looked up): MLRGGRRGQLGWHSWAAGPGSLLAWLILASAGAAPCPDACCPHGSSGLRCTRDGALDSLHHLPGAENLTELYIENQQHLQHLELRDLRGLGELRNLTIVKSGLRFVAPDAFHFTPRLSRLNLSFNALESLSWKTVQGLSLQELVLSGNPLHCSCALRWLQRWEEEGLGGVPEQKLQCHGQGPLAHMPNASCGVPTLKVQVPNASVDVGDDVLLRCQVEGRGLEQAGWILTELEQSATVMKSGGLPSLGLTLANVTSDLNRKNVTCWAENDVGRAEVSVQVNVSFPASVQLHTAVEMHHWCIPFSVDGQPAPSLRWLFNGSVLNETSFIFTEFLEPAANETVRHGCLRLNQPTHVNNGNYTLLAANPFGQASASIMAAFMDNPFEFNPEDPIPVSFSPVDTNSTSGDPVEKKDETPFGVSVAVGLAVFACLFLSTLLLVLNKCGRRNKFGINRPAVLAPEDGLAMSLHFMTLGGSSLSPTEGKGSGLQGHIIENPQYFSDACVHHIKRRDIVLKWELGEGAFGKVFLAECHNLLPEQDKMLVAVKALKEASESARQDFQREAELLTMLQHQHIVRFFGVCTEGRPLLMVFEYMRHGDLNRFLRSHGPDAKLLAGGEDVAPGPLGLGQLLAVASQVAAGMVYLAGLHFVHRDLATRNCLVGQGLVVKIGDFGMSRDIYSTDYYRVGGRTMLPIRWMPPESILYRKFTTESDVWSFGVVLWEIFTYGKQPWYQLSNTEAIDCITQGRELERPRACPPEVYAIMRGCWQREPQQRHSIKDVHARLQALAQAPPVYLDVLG
Chain of UniProt Q9BXA7 (whole entry, looked up): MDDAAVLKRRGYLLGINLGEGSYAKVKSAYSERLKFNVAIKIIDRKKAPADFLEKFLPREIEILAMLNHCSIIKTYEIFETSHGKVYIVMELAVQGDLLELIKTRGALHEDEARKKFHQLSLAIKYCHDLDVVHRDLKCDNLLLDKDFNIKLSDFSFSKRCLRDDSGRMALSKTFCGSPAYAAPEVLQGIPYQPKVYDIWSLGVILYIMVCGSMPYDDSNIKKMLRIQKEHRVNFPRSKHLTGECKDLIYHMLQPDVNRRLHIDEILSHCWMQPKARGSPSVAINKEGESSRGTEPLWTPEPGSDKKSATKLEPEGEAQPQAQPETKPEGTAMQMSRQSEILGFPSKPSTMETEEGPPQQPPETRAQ

Sample 1 — method: CCK-8; quantity: survival
SMILES: CC[C@@H](C)c1nc2cc(Nc3ccnc4ccc(S(=O)(=O)C(C)C)cc34)ccc2s1.Cl
L929 RIPK3-/- reexpressing RIPK3 K51A; 6.25 µM: 99.1% and 99.2% and 96.3% and 105%
L929 RIPK3-/- reexpressing RIPK3 K51A/R69H; 50 µM: 33% and 32.7% and 35.5% and 30.9% and 42.2%
L929 RIPK3-/- reexpressing RIPK3 K51A/R69H; 12.5 µM: 92.5% and 98.6% and 98.4% and 102%
L929 RIPK3-/- reexpressing RIPK3 K51A/R69H; 25 µM: 80.9% and 91.8% and 90.9% and 77.9% and 73.1%
L929 RIPK3-/- reexpressing RIPK3 K51A; 3.125 µM: 97.1% and 102% and 95% and 98.8% and 88.6%
L929 RIPK3-/- reexpressing RIPK3 K51A; 50 µM, together with: zVAD: 26.1% and 51.5% and 65% and 67.9% and 58.7%
L929 RIPK3-/- reexpressing RIPK3 K51A/R69H; 3.125 µM: 99.2% and 98.2% and 91.7% and 88.8% and 89.8%
L929 RIPK3-/- reexpressing RIPK3 K51A/R69H; 50 µM, together with: zVAD: 33.5% and 31.3% and 42.5% and 32%

Sample 2 — read-out: enzyme activity; action: inhibitor; tested at: 0.5 µM; reference: control; quantity: remaining activity
SMILES: O=C1NC(=O)c2c1c1c3ccccc3n3c1c1c2c2ccccc2n1[C@H]1CC[C@@H]3O1
CHUK (Homo sapiens, UniProt O15111): 106%
ZAP70 (Homo sapiens, UniProt P43403): 88.4%
TTK (Homo sapiens, UniProt P33981): 76.4%
PDGFRA (Homo sapiens, UniProt P16234): 32.8%
NTRK1 (Homo sapiens, UniProt P04629): 4.98%
MAP3K7 (Homo sapiens, UniProt O43318): 6.06%
Cyclin-dependent kinase 6, with cyclin D1 (CDK6, Homo sapiens, UniProt Q00534): 6.06%
SRPK2 (Homo sapiens, UniProt P78362): 107%
CAMK2A (Homo sapiens, UniProt Q9UQM7): 2.84%
PTK2 (Homo sapiens, UniProt Q05397): 23.5%
PIM3 (Homo sapiens, UniProt Q86V86): 0.238%
STK3 (Homo sapiens, UniProt Q13188): 3.22%
Aurora kinase B (AURKB, Homo sapiens, UniProt Q96GD4): 9.52%
PTK6 (Homo sapiens, UniProt Q13882): 83.9%
STK4 (Homo sapiens, UniProt Q13043): 3.56%
SYK (Homo sapiens, UniProt P43405): 15.8%
HASPIN (Homo sapiens, UniProt Q8TF76): 18.5%
TSSK1B (Homo sapiens, UniProt Q9BXA7): 17.7%

Sample 3 — read-out: enzyme activity; action: inhibitor; tested at: 10 µM; quantity: inhibition
Target: Calcium/calmodulin-dependent protein kinase type II subunit alpha (CAMK2A, Homo sapiens, UniProt Q9UQM7)
O=C/C=C/c1ccccc1: 7%
CCN1C[C@]2(C)CC[C@H](OC)[C@]34[C@@H]5C[C@@H]6CC[C@](O)([C@@H]([C@@H](OC(=O)c7ccccc7)[C@H]23)[C@@H]14)[C@H]5C(=O)O6: 14%
CC(C)(C)CC(C)(C)c1ccc(O)cc1: 13%
NCC(O)c1ccccc1 (centres unmarked): -7%
COC1=CC(=O)O[C@@H](CCc2ccccc2)C1: 32%
O=C(O)[C@H]1O[C@@H](Oc2cc3oc(-c4ccc(O)cc4)cc(=O)c3c(O)c2O)[C@H](O)[C@@H](O)[C@@H]1O: -1%
Nc1nc(N)nc(NC2CC2)n1: -19%

Sample 4 — medium: plasma; quantity: Cmax
SMILES: O=C1CCC(N2Cc3c(ccc4c3OCC43CCN(Cc4ccccc4)CC3)C2=O)C(=O)N1 (centres unmarked)
ICR mouse, male; intravenous, 1.0 mg/kg: 320 ng/mL
male CD-1 mouse; oral, 3 mg/kg: 398 ng/mL
male Sprague-Dawley rat; intravenous, 1 mg/kg: 374 ng/mL
male ICR mice; intravenous, 1.0 mg/kg: 314 ng/mL and 263 ng/mL
male Sprague-Dawley rat; oral, 3 mg/kg: 263 ng/mL
male ICR mice; oral, 3.0 mg/kg: 340 ng/mL

Mixed results
CN(C)c1ncnc(-c2ccc3nc(Nc4cc(CN5CCN(C(=O)CC(F)(F)F)CC5)ccn4)[nH]c3c2)c1Cl — remaining binding (CDPK1 (Plasmodium falciparum, UniProt P62344); cell-free assay, competition with immobilised ligand; 1 µM): 100%
CNC(=O)c1cc(C(=O)NC2CC2)cn(Cc2ccccc2)c1=O — inhibition (ADRB1 (Homo sapiens, UniProt P08588); binding, radioligand binding; 10 µM): -6.19%

Repeated from above (sample 2):
PIM3 (Homo sapiens, UniProt Q86V86): 0.238%
STK3 (Homo sapiens, UniProt Q13188): 3.22%
Aurora kinase B (AURKB, Homo sapiens, UniProt Q96GD4): 9.52%
PTK6 (Homo sapiens, UniProt Q13882): 83.9%
